Measurements of several laboratories.
A part holds a random share of what one study measured. Substitutions count along the parent as printed.

Set 1
Target: CCND3, cyclin fold, Cln2 fusion (human)
Technique: yeast growth competition, sequencing
Sample: yeast
Notes: weak parent motif
Relative to: not given
Direction: higher = stronger binding
Measurement: normalised enrichment score
Parent: ORC1 docking peptide (human); PRARKRLELGNLG
Substitution = L9P; result = 0.0486
Substitution = R2Y; result = 0.0678
Substitution = L7Y; result = 0.15
Substitution = L7N; result = 0.0577
Substitution = L12K; result = 0.107
Substitution = R6A; result = -0.0324
Substitution = L9D; result = 0.111
Substitution = N11L; result = 0.178
Substitution = R2H; result = 0.112
Substitution = R4F; result = 0.203
Substitution = R4D; result = 0.176
Substitution = P1F; result = -0.0357
Substitution = G10K; result = 0.072
Substitution = K5V; result = 0.0895
Substitution = L9K; result = 0.14

Set 2
Target: Histone acetyltransferase KAT6A, winged helix 1, GST fusion (KAT6A, Homo sapiens, UniProt Q92794, residues 1-85)
Technique: protein binding microarray
Form: double-stranded DNA, one strand shown
Sample: in vitro
Tested at: not given
Notes: 8-mer, flanks averaged, mean of 2 arrays, mostly near background
Relative to: not given
Direction: higher = stronger binding
Measurement: E-score
Residues (chain): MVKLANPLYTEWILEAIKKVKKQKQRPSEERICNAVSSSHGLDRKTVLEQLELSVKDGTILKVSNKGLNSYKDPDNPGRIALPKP
Strand = ACAGGGAT; result = -0.288
Strand = CCTTGCTA; result = -0.134
Strand = ACGTGCTA; result = -0.027
Strand = GACCATAC; result = 0.0184
Strand = CTAGACCA; result = -0.227
Strand = CTCAGATC; result = -0.158
Strand = CATGTCTA; result = -0.157
Strand = CCTCAAAG; result = -0.243
Strand = GTCACTCA; result = -0.142
Strand = TATACGGA; result = 0.115
Strand = ACGGGATC; result = 0.342
Strand = GATCAAGA; result = -0.0818
Strand = CGTGTGGC; result = 0.104
Strand = CTCACGCA; result = 0.0488
Strand = ATGCATAG; result = -0.208
Strand = TACCTACA; result = -0.164
Strand = CTACTACA; result = -0.104
Strand = GACTCCAA; result = -0.198
Strand = AAAAGGCT; result = -0.0551
Strand = CAGGGCAG; result = -0.192
Strand = ACGAAGTG; result = -0.143
Strand = CTTGCCTC; result = -0.0463
Strand = GCCCTTCC; result = -0.0789
Strand = CCCTTCGC; result = 0.0659
Strand = ACCTACAC; result = -0.211

Set 3
Target: RING finger protein unkempt homolog, zinc fingers 1-6, GST-SBP tag (UNK, Homo sapiens, UniProt Q9C0B0, residues 30-357)
Sequence of UniProt Q9C0B0 (30-357, looked up): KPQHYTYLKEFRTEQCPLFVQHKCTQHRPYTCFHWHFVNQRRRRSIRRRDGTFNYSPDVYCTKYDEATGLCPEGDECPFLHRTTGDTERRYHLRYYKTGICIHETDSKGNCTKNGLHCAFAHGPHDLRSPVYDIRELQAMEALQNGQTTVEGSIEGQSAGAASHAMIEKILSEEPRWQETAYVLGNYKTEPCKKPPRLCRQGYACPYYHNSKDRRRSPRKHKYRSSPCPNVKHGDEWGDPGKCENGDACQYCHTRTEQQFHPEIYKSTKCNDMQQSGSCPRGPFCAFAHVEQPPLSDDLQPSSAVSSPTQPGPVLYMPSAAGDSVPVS
Technique: RNA Bind-n-Seq
Form: RNA
Sample: in vitro
Tested at: not given
Notes: RNA with constant flanks, human and mouse sites, ends assumed
Relative to: input RNA pool
Direction: higher = stronger binding
Measurement: bound/input enrichment
All sequences stand within: GGGAGUUCUACAGUCCGACGAUC … CAACAGAGGAUUGAGCAUCA
Strand = AAACAUUUUUUCAGUCUGAAGACAGAAAGGUUUGUGUCUCAGCUUUCCUUGAGUGUGUUCAUACUAUUUGUUUUUAUUCACCUGACAGCCACGUGAUAGUAAUAAAAACAGGACAUGUGU; result = 0.176 ratio
Strand = GCACUUCUCAAAUACUGGCCAAAGACUCACAGUCCAAAAGAAGUAAUGUUCUUAAAUGAAUUAGAAGAAAUUUUAGAUGUAAUUGAACCAUCAGAGUUUGUGAAGAUCAUGGAGCCUCUU; result = 0.839 ratio
Strand = AAACUGGCUGUUCAGAUUGGCAAAGCAGGUCUGUUGAUGUCUGCCAUCACAGUUAUCAUUCUAGUAUUAUAUUUUGUCAUUGACACCUUCUGGGUUCAGAAAAGACCAUGGCUUGCUGAG; result = 13.6 ratio
Strand = UGUGACAAGCUUUAUACUUGCCGCUUGUGUCAUGAUAACAAUGAAGAUCAUCAACUAGAUCGCUUUAAAGUGAAGGAAGUGCAGUGCAUAAACUGUGAAAAAAUUCAACAUGCCCAACAG; result = 0.137 ratio
Strand = CUACUGAUCCCUGUGAGCAACUCGGAGAUGGAAAAGGUGGACGGCUUGCUCACCUGCUGCUCCGUUUUUAUUAACAAGAAGAUAGACUCCUGAGCCAGAGAGUCCCUUCCCUGUGGCCAG; result = 0.119 ratio
Strand = AUUACUCUAAUGGAGUACUAUUCCAAAGAAGCCCUAGGCGAUUCCAAGUCUAAGAAGUCAGUAGCUUAUAAUUACGCAUGCGUACUCACGCUGGUGGUGGCUCAGUCUUCCAGCGGUGUC; result = 0.931 ratio
Strand = AGCAGCGGAGAGUUUCUGGGGCGCACCUCCAAGAGCUGGGGUCUGAUCUUGCUCUUCUACCUAGUUUUUUAUGGGUUCUUGGCUGCACUCUUCACAUUCACAAUGUGGGCCAUGCUCCAG; result = 4.81 ratio
Strand = GUCAUUCAUACCAUUCACACCUAAAGACUGAAUUUUAUCUGUUUUGAAAACGAACUUCUCUAGCUACACAGAAGUAACAAAAUAUGUUAGUCAGUUUUGUAUUUAGAAAUGUAUUGGUAG; result = 2.12 ratio

Set 4
Target: Prothrombin, mature alpha-thrombin (F2, Homo sapiens, UniProt P00734)
Technique: aptamer microarray, sandwich
Form: DNA with 2'F-ANA
Sample: in vitro
Tested at: 200 nM
Notes: whole 15-mer aptamer, many near background
Together with: Cy3 exosite-II aptamer, 400 nM
Direction: higher = stronger binding
Measurement: mean fluorescence intensity
Strand: GGTTGGTGTGGTTGG
Modification = 2'F-ANA at 2 4 8 9 10 13; result = 72.3 a.u.
Modification = 2'F-ANA at 1 3 7 8 10 11 12 13 15; result = 109 a.u.
Modification = 2'F-ANA at 2 4 5 6 7 8 11 12 14 15; result = 48.2 a.u.
Modification = 2'F-ANA at 2 3 4 10 11 14 15; result = 178 a.u.
Modification = 2'F-ANA at 2 3 6 10 11 12 13 14 15; result = 240 a.u.
Modification = 2'F-ANA at 2 3 4 5 6 9 10 11 13 15; result = 49.2 a.u.
Modification = 2'F-ANA at 1 4 5 6 8 12; result = 118 a.u.
Modification = 2'F-ANA at 2 3 5 7 8 15; result = 123 a.u.
Modification = 2'F-ANA at 1 2 4 7 9 13 15; result = 81.6 a.u.
Modification = 2'F-ANA at 3 6 7 8 13 14; result = 655 a.u.
Modification = 2'F-ANA at 4 5 11 12; result = 111 a.u.
Modification = 2'F-ANA at 5 6 8 10 12; result = 48.6 a.u.
Modification = 2'F-ANA at 3 7 8 9 10 13; result = 541 a.u.
Modification = 2'F-ANA at 3 4 5 6 7 8; result = 116 a.u.
Modification = 2'F-ANA at 1 2 3 5 6 7 10 12; result = 49.9 a.u.
Modification = 2'F-ANA at 1 2 3 4 5 6 7 8 10 12 13 14; result = 47.2 a.u.
Modification = 2'F-ANA at 1 2 4 5 6 8 9 11 12 13 15; result = 65.9 a.u.
Modification = 2'F-ANA at 2 3 4 5 6 7 12 15; result = 170 a.u.
Modification = 2'F-ANA at 3 4 6 8 9 10 14 15; result = 198 a.u.
Modification = 2'F-ANA at 1 2 3 4 5 6 8 10 12 14; result = 54.7 a.u.
Modification = 2'F-ANA at 4 6 9 10 11 14; result = 57.1 a.u.
Modification = 2'F-ANA at 2 4 5 6 12 14; result = 49.6 a.u.
Modification = 2'F-ANA at 1 2 3 6 7 11 12 14 15; result = 78.7 a.u.
Modification = 2'F-ANA at 1 2 4 5 7 8 10; result = 53.9 a.u.
Modification = 2'F-ANA at 1 8 10 12 13; result = 66.9 a.u.

Mixed results
Substance = PhoQ, residues 284 288 289 292 302 303 SLKLQV; target = PhoP, residues 12 14 15 18 19 HEGLL (Escherichia coli, UniProt P23836); assay = Sort-seq, measured: YFP reporter; system = E. coli; setting = PhoQ-PhoP variant library, together with: 10 µM Mg2+; how to read = relative to: high Mg2+ state, higher = stronger signaling; measurement = fold induction; result = 15.4

For quick reference, copied from above (set 3):
Strand = AAACAUUUUUUCAGUCUGAAGACAGAAAGGUUUGUGUCUCAGCUUUCCUUGAGUGUGUUCAUACUAUUUGUUUUUAUUCACCUGACAGCCACGUGAUAGUAAUAAAAACAGGACAUGUGU; result = 0.176 ratio
Strand = GCACUUCUCAAAUACUGGCCAAAGACUCACAGUCCAAAAGAAGUAAUGUUCUUAAAUGAAUUAGAAGAAAUUUUAGAUGUAAUUGAACCAUCAGAGUUUGUGAAGAUCAUGGAGCCUCUU; result = 0.839 ratio
Strand = AAACUGGCUGUUCAGAUUGGCAAAGCAGGUCUGUUGAUGUCUGCCAUCACAGUUAUCAUUCUAGUAUUAUAUUUUGUCAUUGACACCUUCUGGGUUCAGAAAAGACCAUGGCUUGCUGAG; result = 13.6 ratio
Strand = UGUGACAAGCUUUAUACUUGCCGCUUGUGUCAUGAUAACAAUGAAGAUCAUCAACUAGAUCGCUUUAAAGUGAAGGAAGUGCAGUGCAUAAACUGUGAAAAAAUUCAACAUGCCCAACAG; result = 0.137 ratio
